Measured values of several laboratories.
Lines come from different studies, so protocols differ. ± gives the spread as reported.

`COc1ccc(NC(=O)N2CCCCN3[C@H](CO)[C@H](c4ccc(C#Cc5ccccc5)cc4)[C@@H]3C2)cc1` gave an oral bioavailability of 86% (CD-1 mouse; oral, dose not given).
With `CO[C@H]1/C=C/O[C@@]2(C)Oc3c(C)c(O)c4c(c3C2=O)C2=NC3(CCN(CC(C)C)CC3)NC2=C(NC(=O)/C(C)=C\C=C\[C@H](C)[C@H](O)[C@@H](C)[C@@H](O)[C@@H](C)[C@H](OC(C)=O)[C@@H]1C)C4=O` the oral bioavailability was 69% (CD-1 mouse female; oral, 10 mg/kg).
With `C[C@@H]1CN(Cc2ncccn2)C[C@H]1c1nc2c(cnn2C2CCOCC2)c(=O)[nH]1` the oral bioavailability was 67% (mouse; oral, 1 mg/kg).
`COc1ccc(C(O)COc2ccc(-c3csc(-c4ccc(OCC(O)c5ccc(OC)c(OC)c5)cc4)n3)cc2)cc1OC` (stereo not drawn) has an oral bioavailability of 63.8% (C57BL/6J mouse, plasma; oral, 10 mg/kg).
`O=[N+]([O-])c1ccc(-c2ccc(O)cc2)c2cccnc12` gave an oral bioavailability of 4.75% (male ICR mouse; oral, 5 mg/kg; reference: intravenous 1 mg/kg).
`COc1cc2c3c(n(CCCNC(C)C)c(=O)c2cc1OC)-c1nc2c(cc1C3=O)OCO2` gave an oral bioavailability of 41.9% (male CD1 mouse; oral, 10 mg/kg; reference: 1 mg/kg intravenous).
`COc1ccc(NC(=O)N2CCCCN3[C@H](CN(C)S(C)(=O)=O)[C@H](c4ccc(C#Cc5ccccc5)cc4)[C@@H]3C2)cc1` has an oral bioavailability of 78% (CD-1 mouse; oral, dose not given).
`CC(=O)N(C)C1CCN(c2cc(F)cc(NC(=O)c3cc4c(F)ccc(C)c4[nH]3)c2)C1` (stereo not drawn) gave an oral bioavailability of 0.425% (CD1 mouse; oral, 50 mg/kg).
With `O=c1c2cc(Cl)c(CO)cc2[nH]c(=S)n1Cc1cccnc1` the oral bioavailability was 1.3% (mouse; oral, 10 mg/kg).
The oral bioavailability of `O=C(NO)c1ccc(CN(c2cnccn2)c2cnccn2)cc1` is reported as 15% (mouse).
`COc1cc2c3c(n(CCCNCCO)c(=O)c2cc1OC)-c1nc2c(cc1C3=O)OCO2` gave an oral bioavailability of 1.19% (male CD1 mouse; oral, 10 mg/kg; reference: 1 mg/kg intravenous).
`CN(C)C(=O)c1cc2cnc(Nc3ccc(-c4ccc5c(=O)cc(N6CCOCC6)oc5c4)cc3)nc2n1C1CCCC1.Cl` gave an oral bioavailability of 28.9 ± 7.9% (Balb/c mouse; oral, 20 mg/kg; reference: intravenous 2 mg/kg).
